Published values pooled from the literature.
Protocols differ between the studies behind these lines. ± marks the error that the study gave.

Sequences of proteins named here, by UniProt entry; tags and fusion partners are left off. A change or cut given only in a name is not applied to a line headed by its entry. Residues count along the entry.
UniProt Q7L7X3, whole entry: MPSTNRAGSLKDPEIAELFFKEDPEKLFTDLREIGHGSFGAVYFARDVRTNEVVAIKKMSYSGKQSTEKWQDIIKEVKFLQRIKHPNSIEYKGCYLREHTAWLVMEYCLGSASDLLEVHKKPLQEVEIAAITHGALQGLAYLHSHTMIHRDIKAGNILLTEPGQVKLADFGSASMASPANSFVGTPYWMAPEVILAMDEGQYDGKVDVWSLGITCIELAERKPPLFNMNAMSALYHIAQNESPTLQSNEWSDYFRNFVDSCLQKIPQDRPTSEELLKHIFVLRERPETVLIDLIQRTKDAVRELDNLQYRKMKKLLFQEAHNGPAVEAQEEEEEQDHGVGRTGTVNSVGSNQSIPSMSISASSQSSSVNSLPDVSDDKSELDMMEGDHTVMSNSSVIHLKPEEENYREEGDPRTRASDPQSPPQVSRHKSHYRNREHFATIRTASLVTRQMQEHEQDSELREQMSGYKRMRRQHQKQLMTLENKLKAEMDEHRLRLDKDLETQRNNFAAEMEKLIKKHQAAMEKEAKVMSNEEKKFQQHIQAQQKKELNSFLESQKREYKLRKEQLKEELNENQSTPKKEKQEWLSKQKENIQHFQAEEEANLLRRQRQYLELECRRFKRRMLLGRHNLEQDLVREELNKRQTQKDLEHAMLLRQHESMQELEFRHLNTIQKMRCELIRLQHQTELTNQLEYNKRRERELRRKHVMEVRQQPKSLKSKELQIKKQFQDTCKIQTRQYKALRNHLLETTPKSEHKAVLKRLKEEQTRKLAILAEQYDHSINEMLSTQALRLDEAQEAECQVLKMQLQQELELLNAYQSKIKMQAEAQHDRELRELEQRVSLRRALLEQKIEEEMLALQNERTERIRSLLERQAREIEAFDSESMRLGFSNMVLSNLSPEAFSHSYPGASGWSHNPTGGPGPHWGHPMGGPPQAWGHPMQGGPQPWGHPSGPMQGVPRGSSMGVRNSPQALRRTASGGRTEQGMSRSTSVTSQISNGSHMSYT
UniProt P08631, whole entry: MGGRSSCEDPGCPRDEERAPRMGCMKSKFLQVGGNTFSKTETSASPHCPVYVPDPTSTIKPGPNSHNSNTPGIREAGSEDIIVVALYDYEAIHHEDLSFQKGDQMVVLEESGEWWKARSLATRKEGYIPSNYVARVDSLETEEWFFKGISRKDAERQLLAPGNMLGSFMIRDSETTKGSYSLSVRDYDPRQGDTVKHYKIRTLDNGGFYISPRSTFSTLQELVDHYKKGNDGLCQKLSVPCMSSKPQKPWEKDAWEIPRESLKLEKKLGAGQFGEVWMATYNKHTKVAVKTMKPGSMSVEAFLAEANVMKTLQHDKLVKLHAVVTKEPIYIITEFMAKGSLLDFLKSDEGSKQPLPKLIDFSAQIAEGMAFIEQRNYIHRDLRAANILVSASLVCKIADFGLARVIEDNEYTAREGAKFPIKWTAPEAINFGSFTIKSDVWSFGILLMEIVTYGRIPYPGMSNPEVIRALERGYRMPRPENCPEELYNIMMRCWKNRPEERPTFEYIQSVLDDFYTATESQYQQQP
UniProt P26038, whole entry: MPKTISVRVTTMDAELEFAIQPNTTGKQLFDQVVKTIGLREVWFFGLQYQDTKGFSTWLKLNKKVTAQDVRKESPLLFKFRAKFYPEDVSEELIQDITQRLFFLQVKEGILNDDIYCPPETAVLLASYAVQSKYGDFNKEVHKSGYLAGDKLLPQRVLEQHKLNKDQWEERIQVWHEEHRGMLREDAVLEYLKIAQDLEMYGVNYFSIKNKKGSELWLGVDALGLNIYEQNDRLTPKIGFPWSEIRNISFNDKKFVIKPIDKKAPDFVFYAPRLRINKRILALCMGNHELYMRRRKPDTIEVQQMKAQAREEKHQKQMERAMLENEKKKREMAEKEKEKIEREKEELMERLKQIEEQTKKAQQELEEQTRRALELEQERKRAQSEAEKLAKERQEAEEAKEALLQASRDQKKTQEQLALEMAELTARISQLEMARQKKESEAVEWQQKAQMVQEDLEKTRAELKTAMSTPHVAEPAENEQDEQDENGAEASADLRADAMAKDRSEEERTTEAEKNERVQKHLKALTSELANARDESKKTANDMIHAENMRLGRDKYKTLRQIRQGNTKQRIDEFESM
UniProt Q9ULD4, whole entry: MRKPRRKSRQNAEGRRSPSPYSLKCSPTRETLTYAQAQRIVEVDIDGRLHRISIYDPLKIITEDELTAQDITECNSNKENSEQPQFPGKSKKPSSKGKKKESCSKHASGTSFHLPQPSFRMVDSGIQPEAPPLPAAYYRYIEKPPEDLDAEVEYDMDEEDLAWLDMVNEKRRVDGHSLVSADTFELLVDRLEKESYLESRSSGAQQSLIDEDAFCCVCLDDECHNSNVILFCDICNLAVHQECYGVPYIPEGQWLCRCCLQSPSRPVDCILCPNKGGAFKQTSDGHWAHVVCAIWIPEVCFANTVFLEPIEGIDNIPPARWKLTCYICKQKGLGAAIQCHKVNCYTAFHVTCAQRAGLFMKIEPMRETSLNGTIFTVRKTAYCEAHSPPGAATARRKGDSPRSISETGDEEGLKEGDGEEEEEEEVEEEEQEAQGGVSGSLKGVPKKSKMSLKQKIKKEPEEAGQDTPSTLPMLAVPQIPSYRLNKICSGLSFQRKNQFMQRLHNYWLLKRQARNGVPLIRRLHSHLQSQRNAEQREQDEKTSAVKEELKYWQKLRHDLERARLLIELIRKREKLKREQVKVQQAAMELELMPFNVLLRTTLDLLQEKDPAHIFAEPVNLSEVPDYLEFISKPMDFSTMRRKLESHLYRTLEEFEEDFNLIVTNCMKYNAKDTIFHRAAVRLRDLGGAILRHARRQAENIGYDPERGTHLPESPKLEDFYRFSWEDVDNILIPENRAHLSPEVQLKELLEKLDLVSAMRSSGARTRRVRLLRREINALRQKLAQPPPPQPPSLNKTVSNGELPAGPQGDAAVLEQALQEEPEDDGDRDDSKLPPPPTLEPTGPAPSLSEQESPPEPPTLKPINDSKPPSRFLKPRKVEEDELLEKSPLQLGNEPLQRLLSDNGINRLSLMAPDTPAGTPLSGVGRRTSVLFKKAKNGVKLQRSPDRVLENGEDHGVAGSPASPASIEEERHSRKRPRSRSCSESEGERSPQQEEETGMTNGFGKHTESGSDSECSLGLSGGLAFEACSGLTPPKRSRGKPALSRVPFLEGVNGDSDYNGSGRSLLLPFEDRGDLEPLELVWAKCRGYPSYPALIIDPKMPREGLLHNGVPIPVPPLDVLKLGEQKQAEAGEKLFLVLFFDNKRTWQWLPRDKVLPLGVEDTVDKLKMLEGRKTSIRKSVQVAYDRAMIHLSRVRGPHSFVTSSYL
UniProt Q04771, 21-509 R206H limits assumed: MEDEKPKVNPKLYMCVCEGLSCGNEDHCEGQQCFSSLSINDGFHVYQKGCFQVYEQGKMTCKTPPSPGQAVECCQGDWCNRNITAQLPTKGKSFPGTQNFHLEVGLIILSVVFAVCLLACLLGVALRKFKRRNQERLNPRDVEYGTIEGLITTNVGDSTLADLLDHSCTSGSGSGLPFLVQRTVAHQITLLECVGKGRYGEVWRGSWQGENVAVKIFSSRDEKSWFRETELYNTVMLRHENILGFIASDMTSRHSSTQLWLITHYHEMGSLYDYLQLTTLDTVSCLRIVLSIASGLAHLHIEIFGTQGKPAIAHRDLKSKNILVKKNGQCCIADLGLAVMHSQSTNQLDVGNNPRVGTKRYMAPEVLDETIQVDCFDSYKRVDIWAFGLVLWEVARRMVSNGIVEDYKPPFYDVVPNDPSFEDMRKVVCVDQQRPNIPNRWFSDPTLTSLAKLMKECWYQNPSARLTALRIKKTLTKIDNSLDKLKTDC
UniProt P18031, whole entry: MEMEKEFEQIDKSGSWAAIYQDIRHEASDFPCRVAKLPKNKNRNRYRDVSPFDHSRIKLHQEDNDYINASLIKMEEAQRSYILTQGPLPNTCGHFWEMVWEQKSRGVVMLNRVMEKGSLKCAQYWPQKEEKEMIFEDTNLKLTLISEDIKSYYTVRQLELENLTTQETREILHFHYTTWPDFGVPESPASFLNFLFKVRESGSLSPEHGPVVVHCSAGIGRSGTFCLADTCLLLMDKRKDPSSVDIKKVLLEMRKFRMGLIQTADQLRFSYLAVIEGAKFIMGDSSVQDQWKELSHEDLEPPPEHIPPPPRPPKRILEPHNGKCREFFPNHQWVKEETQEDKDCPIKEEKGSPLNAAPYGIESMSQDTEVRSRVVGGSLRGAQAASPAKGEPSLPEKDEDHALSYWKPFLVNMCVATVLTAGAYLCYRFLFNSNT
UniProt P54829, whole entry: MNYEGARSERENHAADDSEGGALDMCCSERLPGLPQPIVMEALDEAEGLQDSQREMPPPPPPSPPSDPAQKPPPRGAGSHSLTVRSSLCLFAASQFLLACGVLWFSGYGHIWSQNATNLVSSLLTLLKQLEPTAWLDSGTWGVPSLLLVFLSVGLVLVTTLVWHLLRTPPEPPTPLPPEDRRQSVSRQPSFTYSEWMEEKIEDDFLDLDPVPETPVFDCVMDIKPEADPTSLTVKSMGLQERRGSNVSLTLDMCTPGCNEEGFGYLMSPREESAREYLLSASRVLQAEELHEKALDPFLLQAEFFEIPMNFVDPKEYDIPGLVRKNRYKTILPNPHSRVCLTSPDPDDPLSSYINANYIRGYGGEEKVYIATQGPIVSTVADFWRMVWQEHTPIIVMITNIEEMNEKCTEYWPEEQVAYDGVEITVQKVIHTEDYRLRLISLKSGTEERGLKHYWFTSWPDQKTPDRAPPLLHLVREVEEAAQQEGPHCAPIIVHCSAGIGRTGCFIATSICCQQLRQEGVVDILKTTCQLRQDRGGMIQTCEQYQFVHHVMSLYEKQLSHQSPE
UniProt Q15256, 22-657 limits assumed: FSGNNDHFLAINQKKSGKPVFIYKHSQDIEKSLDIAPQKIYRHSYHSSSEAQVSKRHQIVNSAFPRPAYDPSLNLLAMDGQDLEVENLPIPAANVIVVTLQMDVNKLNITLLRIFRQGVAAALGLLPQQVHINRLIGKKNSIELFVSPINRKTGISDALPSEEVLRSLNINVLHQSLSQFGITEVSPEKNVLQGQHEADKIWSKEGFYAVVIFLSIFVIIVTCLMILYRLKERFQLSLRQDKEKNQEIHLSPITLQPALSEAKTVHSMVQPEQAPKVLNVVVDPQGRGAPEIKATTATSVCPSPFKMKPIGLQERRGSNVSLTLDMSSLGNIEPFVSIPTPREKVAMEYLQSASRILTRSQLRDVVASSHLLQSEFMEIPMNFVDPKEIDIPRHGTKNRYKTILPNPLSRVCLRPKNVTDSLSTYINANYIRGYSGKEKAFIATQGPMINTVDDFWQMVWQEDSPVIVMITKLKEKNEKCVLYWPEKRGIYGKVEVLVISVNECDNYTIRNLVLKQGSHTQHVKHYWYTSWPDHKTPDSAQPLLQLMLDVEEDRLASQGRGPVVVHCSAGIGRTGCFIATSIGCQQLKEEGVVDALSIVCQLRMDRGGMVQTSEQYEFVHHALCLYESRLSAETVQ
UniProt P31749, whole entry: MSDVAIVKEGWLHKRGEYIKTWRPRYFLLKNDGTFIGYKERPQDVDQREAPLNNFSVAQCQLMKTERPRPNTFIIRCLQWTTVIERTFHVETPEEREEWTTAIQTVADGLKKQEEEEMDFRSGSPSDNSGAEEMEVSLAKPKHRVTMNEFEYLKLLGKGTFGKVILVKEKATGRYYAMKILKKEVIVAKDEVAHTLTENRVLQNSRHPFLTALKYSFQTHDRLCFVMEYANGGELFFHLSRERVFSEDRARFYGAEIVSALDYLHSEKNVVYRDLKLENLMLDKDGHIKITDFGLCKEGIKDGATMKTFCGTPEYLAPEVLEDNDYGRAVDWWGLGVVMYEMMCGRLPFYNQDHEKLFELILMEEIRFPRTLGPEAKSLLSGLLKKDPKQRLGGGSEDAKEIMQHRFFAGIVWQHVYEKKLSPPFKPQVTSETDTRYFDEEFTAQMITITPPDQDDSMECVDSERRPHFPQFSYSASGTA
UniProt Q9NRW4, whole entry: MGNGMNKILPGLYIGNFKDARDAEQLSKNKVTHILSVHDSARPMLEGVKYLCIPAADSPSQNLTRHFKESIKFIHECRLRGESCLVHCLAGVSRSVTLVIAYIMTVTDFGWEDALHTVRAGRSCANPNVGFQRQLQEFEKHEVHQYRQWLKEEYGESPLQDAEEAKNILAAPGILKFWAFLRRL

`CN1C(=O)c2ccccc2N(C)c2nc(Nc3ccc(N4CCC(O)CC4)cc3)ncc21` gave an IC50 of less than 0.1 µM (TAOK1 (Homo sapiens, UniProt Q7L7X3); kinase activity).
For `CCN1CCN(Cc2ccc(NC(=O)c3ccc(C)c(Oc4ncnc5cc(OC)c(OC)cc45)c3)cc2C(F)(F)F)CC1`, the IC50 was 0.16 µM (HCK (Homo sapiens, UniProt P08631); enzyme activity, Z'-LYTE; with: ATP at Km).
`O=C1C=C(NCCc2cc(Br)c(O)c(Br)c2)C(=O)c2ncccc21` has an IC50 of 59.5 µM (Moesin (Homo sapiens, UniProt P26038); phosphorylation, inhibitor, in vitro kinase).
`CC[C@@H]1C(=O)N(C)c2cnc(Nc3ccc(C(=O)NC4CCN(C)CC4)cc3OC)nc2N1C1CCCC1` has a delta Tm of 0.21 ± 0.31 °C (BRPF3 (Homo sapiens, UniProt Q9ULD4); 10 µM).
`COc1cc(-c2nc3ccc(C(=O)NCCCN4CCN(C)C(c5ccccc5)C4)cc3n2C2CCC2)cc(OC)c1OC` (stereo not shown) gave an IC50 of 4.28 µM (ACVR1 (Homo sapiens, UniProt Q04771, R206H); target engagement, NanoBRET; HEK293).
For `O=c1/c(=C/c2ccc(-c3ccccc3[N+](=O)[O-])o2)sc2nc3cc(Br)cnc3n12`, the IC50 was roughly 100 µM (PTPN1 (Homo sapiens, UniProt P18031); phosphatase activity, inhibitor; with: OMFP).
With `Fc1cc(-c2ccc3c(n2)[nH]c2ccncc23)ccn1` [isotope labelled] the specific binding was 3.03 a.u. (Microtubule-associated protein tau, paired helical filaments (MAPT, Homo sapiens, UniProt P10636); radioligand binding; PHF tau brain homogenate; 2.52 nM; higher = more binding).
For `O=c1/c(=C/c2ccccc2Cl)sc2nc3cc(Br)cnc3n12`, the IC50 was greater than 100 µM (PTPN5 (Homo sapiens, UniProt P54829); phosphatase activity, inhibitor; with: OMFP).
For `COc1cc2ncc(-c3cccc(NC4CCNC4)n3)n2cc1-c1cn[nH]c1` (stereo not shown), the IC50 was 0.0016 µM (IRAK1 (Homo sapiens, UniProt P51617); kinase activity, inhibitor).
`O=c1/c(=C/c2ccc(-c3cc(Cl)cc(Cl)c3)o2)sc2nc3cc(Br)cnc3n12` has an IC50 of roughly 100 µM (PTPRR (Homo sapiens, UniProt Q15256); phosphatase activity, inhibitor; with: OMFP).
With `CN1C/C(=C\c2ccccn2)C(=O)[C@@H](Cc2ccccn2)C1` the IC50 was greater than 100 µM (AKT1 (Homo sapiens, UniProt P31749); enzyme activity, inhibitor, Z'-LYTE).
Under tolerability, `O=C(Nc1cccnn1)N1CC(Oc2ccc(-c3ccccc3F)cn2)C1` is recorded as “not toxic” (healthy humans; oral, 5 to 300 mg single, 50 to 500 mg repeated).
Under inhibition, `COc1cc(CC(=O)NCC(NC(=O)C(CCCNC(=O)c2cccc(I)c2)NC(=O)C(Cc2ccc(C(F)(F)P(=O)(O)O)cc2)NC(=O)c2ccc(C)c(Br)c2)C(N)=O)ccc1O` (stereo not shown) is recorded as “no inhibition” (DUSP22 (Homo sapiens, UniProt Q9NRW4); enzyme activity; 10 µM).
